Measurements from different studies.
A part holds a random share of what one study measured. Several values in a cell are separate wells, animals, samples, runs or records.
Sequence of UniProt Q9UF33 (whole entry, looked up): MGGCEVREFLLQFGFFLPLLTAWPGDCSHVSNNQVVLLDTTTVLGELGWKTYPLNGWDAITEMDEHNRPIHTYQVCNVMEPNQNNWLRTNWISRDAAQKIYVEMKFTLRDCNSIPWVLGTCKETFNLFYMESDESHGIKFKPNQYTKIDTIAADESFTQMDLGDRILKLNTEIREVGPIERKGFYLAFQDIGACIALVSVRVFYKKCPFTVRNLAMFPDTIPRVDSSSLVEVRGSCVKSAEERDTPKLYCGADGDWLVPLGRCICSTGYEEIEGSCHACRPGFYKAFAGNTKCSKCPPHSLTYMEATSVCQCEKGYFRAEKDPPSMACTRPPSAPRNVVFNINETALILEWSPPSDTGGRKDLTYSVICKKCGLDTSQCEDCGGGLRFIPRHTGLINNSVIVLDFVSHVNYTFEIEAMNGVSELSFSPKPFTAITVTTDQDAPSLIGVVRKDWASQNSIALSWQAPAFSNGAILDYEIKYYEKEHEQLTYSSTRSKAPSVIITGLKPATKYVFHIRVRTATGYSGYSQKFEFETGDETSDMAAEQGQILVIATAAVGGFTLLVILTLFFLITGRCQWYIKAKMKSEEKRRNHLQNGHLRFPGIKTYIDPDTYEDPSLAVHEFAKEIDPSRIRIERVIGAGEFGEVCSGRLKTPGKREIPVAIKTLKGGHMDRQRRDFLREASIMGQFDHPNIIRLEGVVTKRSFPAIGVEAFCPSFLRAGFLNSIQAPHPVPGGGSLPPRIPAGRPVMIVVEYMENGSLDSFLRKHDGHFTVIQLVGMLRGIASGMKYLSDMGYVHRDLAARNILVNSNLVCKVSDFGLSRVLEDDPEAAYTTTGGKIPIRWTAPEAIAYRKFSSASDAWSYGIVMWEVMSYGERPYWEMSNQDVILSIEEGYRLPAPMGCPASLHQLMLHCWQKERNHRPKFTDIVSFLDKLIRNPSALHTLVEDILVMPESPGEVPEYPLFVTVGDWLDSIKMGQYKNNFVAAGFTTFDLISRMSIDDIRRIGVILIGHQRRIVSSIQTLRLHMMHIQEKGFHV
Sequence of UniProt Q8IU85 (whole entry, looked up): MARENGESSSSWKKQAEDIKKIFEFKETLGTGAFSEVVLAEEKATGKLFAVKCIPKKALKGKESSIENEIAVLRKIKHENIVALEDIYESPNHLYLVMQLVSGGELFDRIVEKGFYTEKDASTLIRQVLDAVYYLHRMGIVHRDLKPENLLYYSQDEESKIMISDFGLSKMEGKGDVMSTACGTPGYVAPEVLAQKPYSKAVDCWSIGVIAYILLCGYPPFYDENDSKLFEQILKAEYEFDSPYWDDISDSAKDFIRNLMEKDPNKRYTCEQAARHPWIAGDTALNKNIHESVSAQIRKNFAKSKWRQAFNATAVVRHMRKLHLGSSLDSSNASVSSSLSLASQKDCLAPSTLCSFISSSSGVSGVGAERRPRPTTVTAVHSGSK

Series 1
Target: Beta-1 adrenergic receptor (ADRB1, Homo sapiens, UniProt P08588)
Sequence of UniProt P08588 (whole entry, looked up): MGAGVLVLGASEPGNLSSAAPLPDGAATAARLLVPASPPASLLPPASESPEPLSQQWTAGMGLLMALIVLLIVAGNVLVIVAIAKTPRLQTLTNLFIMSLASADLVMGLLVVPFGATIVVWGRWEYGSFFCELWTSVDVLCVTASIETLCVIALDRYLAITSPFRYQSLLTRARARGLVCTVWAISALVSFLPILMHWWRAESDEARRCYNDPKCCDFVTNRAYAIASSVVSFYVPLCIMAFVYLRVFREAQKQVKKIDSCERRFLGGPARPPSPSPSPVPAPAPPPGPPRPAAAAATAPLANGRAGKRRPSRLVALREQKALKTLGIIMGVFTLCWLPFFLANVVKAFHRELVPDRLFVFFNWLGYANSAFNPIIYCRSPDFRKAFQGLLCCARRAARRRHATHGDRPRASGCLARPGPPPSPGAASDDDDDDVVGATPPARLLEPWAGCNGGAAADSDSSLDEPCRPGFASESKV
Mode: antagonist
| SMILES | IC50 |
| --- | --- |
| CN(Cc1ccc2nonc2c1)Cc1ccccc1OCC(O)CN1CCCCC1 (stereo not drawn) | ≥ 100 µM |
| CN1CCN(c2ccccc2CNCc2ccccc2)CC1 | ≥ 100 µM |
| OC(c1ccccc1)c1nc(Nc2ccc(N3CCOCC3)cc2)n[nH]1 (stereo not drawn) | ≥ 100 µM |
| CCOc1cc(N2CC=C(c3c[nH]c4ccc(OC)cc34)CC2)ncn1 | ≥ 100 µM |
| CN(C)c1ccc(CN2CC[C@H](c3nc4ccc(C(F)(F)F)cc4[nH]3)C2)cc1 | ≥ 100 µM |
| O=c1cc(-c2cnccn2)oc2c(-c3cn[nH]c3)nccc12 | 50.1 µM |

Series 2
Cell line: mouse MPNST tumor cells
Technique: high-content immunofluorescence imaging
Refers to: nuclear SOX9
Tested at: 10 µM
Time: 12 h
Setting: mean of 2 replicates
Baseline: DMSO control
Direction: higher = more nuclear SOX9
| Structure (SMILES) | nuclear SOX9 intensity |
| --- | --- |
| O=C(Nc1ccc(F)cc1)N1CCc2ccccc2C1c1ccc(C(F)(F)F)cc1 (stereo not drawn) | 116 % of DMSO |
| c1ccc(-c2ccc(C(c3ccccc3)n3ccnc3)cc2)cc1 (stereo not drawn) | 126 % of DMSO |
| NC[C@H]1CC[C@H](C(=O)O)CC1 | 106 % of DMSO and 105 % of DMSO |
| Nc1ncnc2c1ncn2[C@@H]1O[C@H](CO)[C@@H](O)[C@@H]1O | 106 % of DMSO |
| O=C(O)C[C@H]1CC[C@H](c2ccc(NC(=O)c3nnc(Nc4ccc(F)c(F)c4)o3)cc2)CC1 | 99.3 % of DMSO |

Series 3
Target: Calcium/calmodulin-dependent protein kinase type II subunit alpha (CAMK2A, Homo sapiens, UniProt Q9UQM7)
Sequence of UniProt Q9UQM7 (whole entry, looked up): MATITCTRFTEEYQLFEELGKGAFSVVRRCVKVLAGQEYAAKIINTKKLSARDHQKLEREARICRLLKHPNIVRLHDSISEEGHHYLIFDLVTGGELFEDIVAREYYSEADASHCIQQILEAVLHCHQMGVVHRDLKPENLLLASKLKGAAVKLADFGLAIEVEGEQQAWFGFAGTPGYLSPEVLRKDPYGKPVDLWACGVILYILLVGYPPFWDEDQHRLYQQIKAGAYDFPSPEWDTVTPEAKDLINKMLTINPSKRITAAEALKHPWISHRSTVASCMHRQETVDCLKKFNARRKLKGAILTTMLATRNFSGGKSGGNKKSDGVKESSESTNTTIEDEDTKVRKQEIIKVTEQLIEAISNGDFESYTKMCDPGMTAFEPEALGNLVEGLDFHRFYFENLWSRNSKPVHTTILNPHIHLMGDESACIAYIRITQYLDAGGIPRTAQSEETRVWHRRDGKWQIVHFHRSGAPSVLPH
Effect on: enzyme activity
Mode: inhibitor
Tested at: 10 µM
| SMILES | inhibition |
| --- | --- |
| COc1ccc(-c2cc(=O)c3c(OC)cc(OC)c(OC)c3o2)cc1OC | 19% |
| C=C1C(=O)O[C@@H]2CC(C)=C([C@@H](C)CCCOC(C)=O)[C@@H](O)[C@H]12 | -2% |
| CCCCCCCCCCCCCCCCCCCCCC(=O)O[C@H]1CC[C@@]2(C)C(=CC[C@H]3[C@@H]4CC[C@H]([C@H](C)CCCC(C)C)[C@@]4(C)CC[C@@H]32)C1 | 27% |

Series 4
Organism: Sarcocystis neurona
Effect on: parasite growth
Tested at: 10 µM
Time: 96 h
| Compound | inhibition [%] |
| --- | --- |
| O=c1c(O[C@@H]2O[C@H](CO)[C@@H](O)[C@H](O)[C@H]2O)c(-c2ccc(O)c(O)c2)oc2cc(O)cc(O)c12 | -11.9 |
| CC(=O)CC(c1ccccc1)c1c(O)c2ccccc2oc1=O (stereo not drawn) | -13.8 |
| CC1CNc2c(cccc2S(=O)(=O)N[C@@H](CCCNC(=N)N)C(=O)N2CC[C@@H](C)C[C@@H]2C(=O)O)C1 (stereo partly drawn) | -5.7 |
| C=C(CC)C(=O)c1ccc(OCC(=O)O)c(Cl)c1Cl | -2.5 |
| Cn1cc[nH]c1=S | -9 |
| O=C1N[C@H](C(=O)O)CS1 | -6 |
| C[C@H](CS)C(=O)N1CCC[C@H]1C(=O)O | -15.1 |
| Cn1nnc2c(C(N)=O)ncn2c1=O | -10.7 |

Series 5
Compound: O=C(Nc1cnn(-c2csc(C(=O)NC3COC3)c2)c1)Nc1c(F)cccc1Cl
Effect on: enzyme activity
Tested at: 5 µM
| target | mode | baseline | remaining activity [%] |
| --- | --- | --- | --- |
| LCK (Homo sapiens, UniProt P06239) |  | untreated control | 92.4 |
| PRKACG (Homo sapiens, UniProt P22612) | inhibitor |  | 97.6 |
| EPHA6 (Homo sapiens, UniProt Q9UF33) | inhibitor |  | 95.7 |
| MYLK3 (Homo sapiens, UniProt Q32MK0) |  | untreated control | 92.1 |

Series 6
Compound: CN(c1ccnc(CNc2nc(Nc3ccc4c(c3)CC(=O)N4)ncc2C(F)(F)F)n1)S(C)(=O)=O
Technique: competition with immobilised ligand
Tested at: 1 µM
| target | effect on | remaining binding |
| --- | --- | --- |
| Tyrosine-protein kinase ABL1, phosphorylated (ABL1, Homo sapiens, UniProt P00519, H396P) | cell-free assay | 46% |
| TGFBR1 (Homo sapiens, UniProt P36897) | cell-free assay | 44% |
| TESK1 (Homo sapiens, UniProt Q15569) | cell-free assay | 97% |
| STK16 (Homo sapiens, UniProt O75716) | binding | 1.5% |
| SLK (Homo sapiens, UniProt Q9H2G2) | cell-free assay | 41% |
| RIOK1 (Homo sapiens, UniProt Q9BRS2) | cell-free assay | 9.7% |
| GRK1 (Homo sapiens, UniProt Q15835) | cell-free assay | 74% |
| DCLK1 (Homo sapiens, UniProt O15075) | cell-free assay | 57% |
| MAK (Homo sapiens, UniProt P20794) | cell-free assay | 100% |
| PIP5K1C (Homo sapiens, UniProt O60331) | cell-free assay | 91% |
| LRRK2 (Homo sapiens, UniProt Q5S007) | cell-free assay | 15% |
| eIF-2-alpha kinase GCN2, C-terminal kinase domain (EIF2AK4, Homo sapiens, UniProt Q9P2K8, S808G) | cell-free assay | 6.7% |
| MARK1 (Homo sapiens, UniProt Q9P0L2) | cell-free assay | 77% |
| TLK2 (Homo sapiens, UniProt Q86UE8) | cell-free assay | 100% |
| PIP4K2C (Homo sapiens, UniProt Q8TBX8) | cell-free assay | 42% |
| PIK3C2G (Homo sapiens, UniProt O75747) | cell-free assay | 77% |
| EPHA4 (Homo sapiens, UniProt P54764) | cell-free assay | 90% |
| ULK2 (Homo sapiens, UniProt Q8IYT8) | cell-free assay | 5.4% |
| CAMK1D (Homo sapiens, UniProt Q8IU85) | cell-free assay | 79% |
| CSNK1G3 (Homo sapiens, UniProt Q9Y6M4) | cell-free assay | 100% |
| CAMK2G (Homo sapiens, UniProt Q13555) | cell-free assay | 100% |
| PIK3CA (Homo sapiens, UniProt P42336, M1043I) | cell-free assay | 95% |
| MAPK1 (Homo sapiens, UniProt P28482) | cell-free assay | 70% |
| ALK (Homo sapiens, UniProt Q9UM73, L1196M) | cell-free assay | 65% |
| MUSK (Homo sapiens, UniProt O15146) | cell-free assay | 92% |

Series 7
Target: DNA polymerase theta, ATPase domain (POLQ, Homo sapiens, UniProt O75417)
Sequence of UniProt O75417 (whole entry, unmodified, looked up): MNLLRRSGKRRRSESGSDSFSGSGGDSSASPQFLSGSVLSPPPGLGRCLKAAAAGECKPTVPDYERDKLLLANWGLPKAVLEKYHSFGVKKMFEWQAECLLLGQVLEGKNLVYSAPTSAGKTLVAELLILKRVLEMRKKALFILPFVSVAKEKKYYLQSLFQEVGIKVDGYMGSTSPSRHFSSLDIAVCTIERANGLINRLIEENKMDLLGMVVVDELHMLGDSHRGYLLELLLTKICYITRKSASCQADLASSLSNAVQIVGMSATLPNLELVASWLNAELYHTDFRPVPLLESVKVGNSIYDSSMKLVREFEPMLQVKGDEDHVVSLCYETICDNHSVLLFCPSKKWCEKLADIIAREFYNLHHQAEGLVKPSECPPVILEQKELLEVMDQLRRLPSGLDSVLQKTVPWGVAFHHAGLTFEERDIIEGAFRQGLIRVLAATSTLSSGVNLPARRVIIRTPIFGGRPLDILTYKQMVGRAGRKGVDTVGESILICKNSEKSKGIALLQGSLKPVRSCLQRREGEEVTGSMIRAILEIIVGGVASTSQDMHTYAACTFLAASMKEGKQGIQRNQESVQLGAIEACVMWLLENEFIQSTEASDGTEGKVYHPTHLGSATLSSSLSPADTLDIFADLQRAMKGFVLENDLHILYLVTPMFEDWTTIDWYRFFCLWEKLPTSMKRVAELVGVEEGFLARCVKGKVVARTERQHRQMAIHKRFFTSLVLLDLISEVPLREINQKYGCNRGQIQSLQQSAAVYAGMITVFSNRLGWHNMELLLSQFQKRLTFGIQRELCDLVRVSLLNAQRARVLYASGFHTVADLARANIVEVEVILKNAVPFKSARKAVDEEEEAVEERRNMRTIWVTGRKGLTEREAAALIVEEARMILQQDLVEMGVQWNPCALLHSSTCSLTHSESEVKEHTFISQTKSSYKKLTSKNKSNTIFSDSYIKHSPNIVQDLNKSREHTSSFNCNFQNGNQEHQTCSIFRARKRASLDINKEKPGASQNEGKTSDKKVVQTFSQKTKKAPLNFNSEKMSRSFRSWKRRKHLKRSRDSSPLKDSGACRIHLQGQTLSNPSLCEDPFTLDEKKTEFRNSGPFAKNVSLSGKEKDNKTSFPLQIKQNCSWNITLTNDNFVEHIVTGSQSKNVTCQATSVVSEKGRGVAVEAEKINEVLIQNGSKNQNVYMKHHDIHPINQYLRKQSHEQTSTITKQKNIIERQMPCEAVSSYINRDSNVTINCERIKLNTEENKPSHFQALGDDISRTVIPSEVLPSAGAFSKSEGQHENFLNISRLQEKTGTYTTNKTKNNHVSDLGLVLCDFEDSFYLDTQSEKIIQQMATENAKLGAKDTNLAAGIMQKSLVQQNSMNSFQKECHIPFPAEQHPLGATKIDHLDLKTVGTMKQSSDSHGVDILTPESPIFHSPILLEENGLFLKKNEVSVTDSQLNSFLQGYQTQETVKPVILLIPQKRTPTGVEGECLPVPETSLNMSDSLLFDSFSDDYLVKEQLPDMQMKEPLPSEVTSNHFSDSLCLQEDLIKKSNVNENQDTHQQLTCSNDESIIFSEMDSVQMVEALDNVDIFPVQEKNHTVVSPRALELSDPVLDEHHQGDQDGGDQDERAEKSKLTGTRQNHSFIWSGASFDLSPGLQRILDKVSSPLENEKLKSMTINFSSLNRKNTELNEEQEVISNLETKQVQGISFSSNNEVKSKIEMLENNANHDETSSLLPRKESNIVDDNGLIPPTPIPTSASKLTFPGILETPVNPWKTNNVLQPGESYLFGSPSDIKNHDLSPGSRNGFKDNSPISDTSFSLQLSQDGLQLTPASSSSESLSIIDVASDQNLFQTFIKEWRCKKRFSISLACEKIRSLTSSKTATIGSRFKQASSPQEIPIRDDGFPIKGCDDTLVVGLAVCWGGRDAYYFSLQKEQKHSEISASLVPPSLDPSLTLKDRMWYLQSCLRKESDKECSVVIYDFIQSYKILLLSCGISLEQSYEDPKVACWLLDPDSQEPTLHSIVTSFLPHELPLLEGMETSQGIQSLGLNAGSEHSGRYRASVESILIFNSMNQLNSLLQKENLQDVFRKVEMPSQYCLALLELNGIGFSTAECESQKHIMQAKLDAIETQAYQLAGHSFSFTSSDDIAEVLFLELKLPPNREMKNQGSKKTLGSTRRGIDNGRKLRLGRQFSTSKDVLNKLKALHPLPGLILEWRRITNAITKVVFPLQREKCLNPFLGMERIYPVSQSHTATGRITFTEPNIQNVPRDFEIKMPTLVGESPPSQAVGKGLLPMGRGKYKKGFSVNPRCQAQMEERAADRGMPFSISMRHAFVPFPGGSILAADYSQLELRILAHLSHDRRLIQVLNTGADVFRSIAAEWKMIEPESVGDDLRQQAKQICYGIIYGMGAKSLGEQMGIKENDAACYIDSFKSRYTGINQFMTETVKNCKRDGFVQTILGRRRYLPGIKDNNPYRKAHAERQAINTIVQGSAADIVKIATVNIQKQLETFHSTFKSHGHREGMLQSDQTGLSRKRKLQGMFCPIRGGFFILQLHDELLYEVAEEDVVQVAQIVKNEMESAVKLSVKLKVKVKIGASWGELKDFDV
Effect on: enzyme activity
Mode: inhibitor
Tested at: 77 µM
Baseline: untreated
| SMILES | remaining activity |
| --- | --- |
| CNCCC=C1c2ccccc2C=Cc2ccccc21 | 109% |
| C[C@H](Oc1cc(-c2cnn(C3CCNCC3)c2)cnc1N)c1c(Cl)ccc(F)c1Cl | 117% |
| Cn1cc(C(=O)OCC2CCN(CCNS(C)(=O)=O)CC2)c2ccccc21 | 100% |
| COc1ccc(CNc2nc(N3CCC[C@H]3CO)ncc2C(=O)NCc2ncccn2)cc1Cl | 102% |
| OC[C@H]1NC[C@H](O)[C@@H](O)[C@@H]1O | 102% |
| CCc1cccc(CC)c1NC(=O)N1Cc2[nH]nc(NC(=O)c3ccc(N4CCN(C)CC4)cc3)c2C1 | 102% |

Some of these lines once more (series 1):
| SMILES | IC50 |
| --- | --- |
| CN(Cc1ccc2nonc2c1)Cc1ccccc1OCC(O)CN1CCCCC1 (stereo not drawn) | ≥ 100 µM |
| CN1CCN(c2ccccc2CNCc2ccccc2)CC1 | ≥ 100 µM |
| OC(c1ccccc1)c1nc(Nc2ccc(N3CCOCC3)cc2)n[nH]1 (stereo not drawn) | ≥ 100 µM |
| CCOc1cc(N2CC=C(c3c[nH]c4ccc(OC)cc34)CC2)ncn1 | ≥ 100 µM |
